Measurements collected from several papers.
Parts stem from different laboratories: compare values within a part only. Substitutions count along the parent as printed.
Sequence of UniProt Q9Y243 (whole entry, looked up): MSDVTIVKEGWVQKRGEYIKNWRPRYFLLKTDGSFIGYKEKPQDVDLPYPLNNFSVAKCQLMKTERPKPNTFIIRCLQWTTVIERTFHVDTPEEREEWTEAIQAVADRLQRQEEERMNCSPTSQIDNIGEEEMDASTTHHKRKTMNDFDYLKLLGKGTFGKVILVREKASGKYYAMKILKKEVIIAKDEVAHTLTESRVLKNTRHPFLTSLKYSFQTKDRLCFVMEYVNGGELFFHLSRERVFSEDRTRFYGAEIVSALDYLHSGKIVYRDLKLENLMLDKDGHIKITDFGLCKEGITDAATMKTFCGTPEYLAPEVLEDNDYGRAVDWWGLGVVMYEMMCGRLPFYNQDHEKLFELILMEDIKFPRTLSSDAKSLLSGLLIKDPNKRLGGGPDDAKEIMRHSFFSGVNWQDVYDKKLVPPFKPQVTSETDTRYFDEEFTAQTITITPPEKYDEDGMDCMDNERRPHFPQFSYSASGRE

Sample 1
Target: CCNB3, cyclin fold, Cln2 fusion (human)
Technique: yeast growth competition, sequencing
Matrix: yeast
Setting: weak parent motif
Baseline: not given
Reading: higher = stronger binding
Parent: BRCA2 docking peptide (human); CKKRRALDFLSRL
| Variant | normalised enrichment score |
| --- | --- |
| F9L | 0.749 |
| K3A | 0.874 |
| F9A | 0.269 |
| R5K F9L | 0.971 |
| R12A | 1.3 |
| R5A L7A | 0.356 |
| R5A | 0.29 |
| L10A | 0.506 |

Sample 2
Target: Interferon regulatory factor 7, full length, phosphomimetic (IRF7, Homo sapiens, UniProt Q92985, residues 1-503, S101K/S471D/S472D/S475D/S476D/S477D/S483D/S484D/S487D)
Technique: protein-binding microarray
Form: double-stranded DNA, one strand shown
Matrix: in vitro
Concentration: 250 nM
Setting: 60-bp whole probe
Added: salmon DNA 0.4 mg/ml
Baseline: random background probes
Reading: higher = stronger binding
All sequences stand within: GCCTAGCAC … GTGCTAGGTCTTGATTCGCTTGACGCTGCTG
Residues (chain): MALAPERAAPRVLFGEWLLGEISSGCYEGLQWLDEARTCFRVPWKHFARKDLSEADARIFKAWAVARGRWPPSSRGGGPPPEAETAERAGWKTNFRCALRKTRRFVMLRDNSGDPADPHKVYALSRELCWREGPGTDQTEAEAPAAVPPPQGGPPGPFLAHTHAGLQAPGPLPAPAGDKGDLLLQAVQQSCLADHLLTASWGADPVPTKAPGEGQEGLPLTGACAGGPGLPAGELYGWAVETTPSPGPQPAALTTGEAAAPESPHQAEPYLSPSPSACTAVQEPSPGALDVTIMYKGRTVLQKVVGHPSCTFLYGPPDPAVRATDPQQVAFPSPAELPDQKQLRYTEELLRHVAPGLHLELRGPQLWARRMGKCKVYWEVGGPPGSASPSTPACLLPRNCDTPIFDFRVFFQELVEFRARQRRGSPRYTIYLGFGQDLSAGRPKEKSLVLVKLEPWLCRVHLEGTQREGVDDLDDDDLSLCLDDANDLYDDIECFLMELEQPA
| Strand | log fluorescence |
| --- | --- |
| TTAGGTTCCCTTTGCCTTTA | 3.14 z-score |
| TCACCCCTCCCCCTCAGACT | -0.177 z-score |
| GGCGATCTCAGTTTCGAGAC | 3.02 z-score |
| GACGATCTCAGTCTCGAGTC | 1.38 z-score |
| GACGGACTGGGTATTGGGAC | -0.736 z-score |
| GACGGACCGCTTCTCCTGAC | 0.48 z-score |
| TCTCTGCTCCTTCTGACATC | 0.0274 z-score |
| TTAGGTATCGGGCTCGGTTA | 0.733 z-score |

Mixed results
| Molecule | target | assay | test system | conditions | how to read | endpoint | value |
| --- | --- | --- | --- | --- | --- | --- | --- |
| PhoQ, residues 284 288 289 292 302 303 AGGLSV | PhoP, residues 12 14 15 18 19 SYFRT (Escherichia coli, UniProt P23836) | Sort-seq, measured: YFP reporter | E. coli | PhoQ-PhoP variant library, added: 10 µM Mg2+ | baseline: high Mg2+ state, higher = stronger signaling | fold induction | 0.565 |
| Cc1cn(-c2cc(NC(=O)c3ccc(C)c(Nc4nccc(-c5cccnc5)n4)c3)cc(C(F)(F)F)c2)cn1 | RAC-gamma serine/threonine-protein kinase (AKT3, Homo sapiens, UniProt Q9Y243) | enzyme activity, inhibitor |  | 0.5 µM | baseline: control | remaining activity | 74.8% |

A few entries again (mixed results):
| Molecule | target | assay | test system | conditions | how to read | endpoint | value |
| --- | --- | --- | --- | --- | --- | --- | --- |
| PhoQ, residues 284 288 289 292 302 303 AGGLSV | PhoP, residues 12 14 15 18 19 SYFRT (Escherichia coli, UniProt P23836) | Sort-seq, measured: YFP reporter | E. coli | PhoQ-PhoP variant library, added: 10 µM Mg2+ | baseline: high Mg2+ state, higher = stronger signaling | fold induction | 0.565 |
